Measured values gathered from unrelated publications.
Protocols differ between the studies behind these lines.
Organism: Streptococcus pneumoniae

Structure (SMILES)	effect on	technique	strain	matrix	time	temperature	MIC
CN[C@@H]1[C@H](O)[C@H](NC)[C@H]2O[C@]3(O)[C@H](O[C@@H]2[C@H]1O)O[C@H](C)C[C@H]3NC(=O)Cc1ccc(F)cn1	microbial growth	broth dilution	DAW27				12.5 µg/mL
c1ccc(CCNC2CCCc3c2[nH]c2ccc(C4CCCCC4)cc32)cc1 (centres unmarked)		broth microdilution	serotype 14 700676	supplemented C+Y medium			1.3 µg/mL
Oc1c(Br)cc(Br)c2nc3ccc(C(F)(F)F)cc3nc12		broth microdilution	6303				0.39 µM
CC[C@H](C)[C@@H]1NC(=O)[C@H](CO)NC(=O)C(C)(CCCCN)NC(=O)[C@@H]2CSSC[C@@H](C(=O)N[C@@H](Cc3ccc(O)cc3)C(N)=O)NC(=O)[C@H](CCCCN)NC(=O)[C@@H]3CSSC[C@H](NC(=O)[C@H](CCCNC(=N)N)NC(=O)C(C)(CC(C)C)NC(=O)[C@H](CC(=O)O)NC(=O)[C@H](CC(=O)O)NC(=O)[C@H](CCC(=O)O)NC(=O)[C@H](CC(N)=O)NC(=O)[C@H](Cc4c[nH]c5ccccc45)NC(=O)[C@@H]4CCCN4C(=O)CNC(=O)[C@H](CC(N)=O)NC(=O)[C@@H](NC(=O)CNC(=O)[C@H](Cc4ccccc4)NC(=O)CN)CSSC[C@H](NC(=O)[C@H](Cc4ccc(O)cc4)NC(=O)CNC(=O)CNC(=O)[C@H](CCCCN)NC(=O)[C@H](Cc4ccc(O)cc4)NC(=O)CNC(=O)[C@H](CCCCN)NC1=O)C(=O)N[C@@H](C)C(=O)N[C@@H](CCCCN)C(=O)NCC(=O)NCC(=O)N[C@@H](Cc1ccccc1)C(=O)N[C@@H](C(C)C)C(=O)N3)C(=O)N[C@@H](Cc1c[nH]cn1)C(=O)NC(C)(C)C(=O)N[C@@H](Cc1c[nH]cn1)C(=O)N2 (some centres unmarked)		broth microdilution	BS-441		18 h		0.5 µM
CN[C@@H]1[C@H](O)[C@H](NC)[C@H]2O[C@]3(O)[C@H](O[C@@H]2[C@H]1O)O[C@H](C)C[C@H]3NC(=O)Cc1cc(Cl)ccn1	microbial growth	broth dilution	DAW27				25 µg/mL
CC[C@H](C)[C@@H]1NC(=O)[C@H](CO)NC(=O)C(C)(CCCCN)NC(=O)[C@@H]2CSSC[C@@H](C(=O)N[C@@H](Cc3ccc(O)cc3)C(N)=O)NC(=O)[C@H](CCCCN)NC(=O)[C@@H]3CSSC[C@H](NC(=O)[C@H](CCCNC(=N)N)NC(=O)C(C)(CC(C)C)NC(=O)[C@H](CC(=O)O)NC(=O)[C@H](CC(=O)O)NC(=O)[C@H](CCC(=O)O)NC(=O)[C@H](CC(N)=O)NC(=O)[C@H](Cc4c[nH]c5ccccc45)NC(=O)C(C)(CC)NC(=O)CNC(=O)[C@H](CC(N)=O)NC(=O)[C@@H](NC(=O)CNC(=O)[C@H](Cc4ccccc4)NC(=O)CN)CSSC[C@H](NC(=O)[C@H](Cc4ccc(O)cc4)NC(=O)CNC(=O)CNC(=O)[C@H](CCCCN)NC(=O)[C@H](Cc4ccc(O)cc4)NC(=O)[C@H]4CCCN4C(=O)[C@@H]4CCCN4C1=O)C(=O)N[C@@H](C)C(=O)N[C@@H](CCCCN)C(=O)N1CCC[C@@H]1C(=O)NCC(=O)N[C@@H](Cc1ccccc1)C(=O)N[C@@H](C(C)C)C(=O)N3)C(=O)N[C@@H](Cc1c[nH]cn1)C(=O)NC(C)(C)C(=O)N[C@@H](Cc1c[nH]cn1)C(=O)N2 (some centres unmarked)		broth microdilution	BS-442		18 h		1 µM
Oc1c(Br)cc(Br)c2nc3cc(F)c(F)cc3nc12		broth microdilution	6303				0.3 µM
c1ccc2c(c1)nc(CNCC13CC4CC(CC(C4)C1)C3)n2CC1CCC1			ATCC 49619				4 µg/mL
CN[C@@H]1[C@H](O)[C@H](NC)[C@H]2O[C@]3(O)[C@H](O[C@@H]2[C@H]1O)O[C@H](C)C[C@H]3NC(=O)Cc1cscn1	microbial growth	broth dilution	DAW27				12.5 µg/mL
CC[C@H](C)[C@@H]1NC(=O)[C@H](CC(C)C)NC(=O)[C@@H](NC(=O)[C@H](CCCNC(=N)N)NC(=O)[C@@H](NC(=O)CNC(=O)[C@@H]2CCCN2C(=O)[C@@H]2CCC(=O)NCC(=O)N[C@@H](CO)C(=O)N[C@@H](CCCNC(=N)N)C(=O)NCC(=O)N[C@@H](Cc3c[nH]c4ccccc34)C(=O)NCC(=O)N[C@@H](Cc3ccccc3)C(=O)N2)C(C)C)CSSC[C@@H](C(=O)N[C@@H](CC(=O)O)C(=O)O)NC(=O)[C@H](Cc2c[nH]c3ccccc23)NC1=O		broth microdilution	ATCC 49619, penicillin intermediate		overnight	37 °C	64 µg/mL
CC[C@H](C)[C@@H]1NC(=O)[C@H](CO)NC(=O)[C@H](CCCCN)NC(=O)[C@@H]2CSSC[C@@H](C(=O)N[C@@H](Cc3ccc(O)cc3)C(N)=O)NC(=O)[C@H](CCCCN)NC(=O)[C@@H]3CSSC[C@H](NC(=O)[C@H](CCCNC(=N)N)NC(=O)[C@H](CC(C)C)NC(=O)[C@H](CC(=O)O)NC(=O)[C@H](CC(=O)O)NC(=O)[C@H](CCC(=O)O)NC(=O)[C@H](CC(N)=O)NC(=O)[C@H](Cc4c[nH]c5ccccc45)NC(=O)C(C)(CC)NC(=O)CNC(=O)[C@H](CC(N)=O)NC(=O)[C@@H](NC(=O)CNC(=O)[C@H](Cc4ccccc4)NC(=O)CN)CSSC[C@H](NC(=O)[C@H](Cc4ccc(O)cc4)NC(=O)CNC(=O)CNC(=O)[C@H](CCCCN)NC(=O)[C@H](Cc4ccc(O)cc4)NC(=O)[C@H]4CCCN4C(=O)[C@@H]4CCCN4C1=O)C(=O)N[C@@H](C)C(=O)N[C@@H](CCCCN)C(=O)N1CCC[C@@H]1C(=O)NCC(=O)N[C@@H](Cc1ccccc1)C(=O)N[C@@H](C(C)C)C(=O)N3)C(=O)N[C@@H](Cc1c[nH]cn1)C(=O)N[C@@H](CC(N)=O)C(=O)N[C@@H](Cc1c[nH]cn1)C(=O)N2 (some centres unmarked)		broth microdilution	D39		18 h		0.5 µM

Repeated from above:
Structure (SMILES)	effect on	technique	strain	matrix	time	temperature	MIC
Oc1c(Br)cc(Br)c2nc3cc(F)c(F)cc3nc12		broth microdilution	6303				0.3 µM
CN[C@@H]1[C@H](O)[C@H](NC)[C@H]2O[C@]3(O)[C@H](O[C@@H]2[C@H]1O)O[C@H](C)C[C@H]3NC(=O)Cc1cscn1	microbial growth	broth dilution	DAW27				12.5 µg/mL
